Published values collected from several papers.
Each line is one published result; not all experiments were run side by side. Numbers after ± are the reported error. Converted amounts (≈) assume the structure as drawn.

SMILES	test	system	setting	how to read	endpoint	value
O=C(O)C(O)(c1cccs1)c1cccs1	item: metabolite	human, plasma	oral, 2 mg once daily, 5 days, median		dose-normalised free AUC(0-24)	0.213 (ng·h/mL)/mg
COc1ccc(CCC2CCCC(CCc3ccc(OC)cc3)N2C[C@@H](O)CO)cc1.Cl (stereo in doubt)		rabbit Purkinje fibres	0.03 µM, cycle length 0.5 s	baseline: baseline	Vmax change	2.9 ± 2.1%
COc1cc2c(Oc3ccc4[nH]c(C)cc4c3F)ccnc2cc1OCC1(N)CC1		paediatric recurrent refractory sarcoma	10 mg		grade 1 or 2 Hematuria	0%
C[C@]1(CO)Cc2ncn(-c3ccc(C#N)c(Cl)c3)c2C(=O)O1		human, Chinese, plasma	60 mg single dose, median		tmax	1 h
CCc1ccc(CC/C=C/c2ccc3c(c2)C(=O)CC3)cc1		Sprague-Dawley rat, male, blood	oral, 120 mg/kg/day, 14 days		APTT	14.4 s
COc1cc(Nc2ncc(F)c(Nc3ccc4c(n3)NC(=O)C(C)(C)O4)n2)cc(OC)c1OC		kinase assay buffer	24 h, 1% DMSO		solubility	121 µM (≈ 57 µg/mL)
O=C(Nc1ccccc1)C1CCN(C(=O)Oc2cccnc2)CC1	Bond-Lader VAS	healthy women	oral, 100 mg	baseline: pre-dose baseline, direction not given	change in alertness score	15
N=C(N)NCCC[C@@H](NC(=O)[C@@H](N)Cc1ccccc1)C(=O)N[C@@H](Cc1ccccc1)C(=O)N[C@@H](CCCCN)C(N)=O		early Huntington's disease patients, plasma	subcutaneous, 15 mg, day 1, median		lag time	0 h
CCCCCOc1ccc(-c2ccc(-c3ccc(C(=O)N[C@H]4C[C@@H](O)[C@@H](OCC[N+](C)(C)C)NC(=O)[C@@H]5[C@@H](O)[C@@H](C)CN5C(=O)[C@H]([C@@H](C)O)NC(=O)[C@H]([C@H](O)[C@@H](O)c5ccc(O)cc5)NC(=O)[C@@H]5C[C@@H](O)CN5C(=O)[C@H]([C@@H](C)O)NC4=O)cc3)cc2)cc1		adult ICU patients, mITT, serum	dose not given, EOT		albumin	29.2 g/L
CN1CC[C@@H](c2c(O)cc(O)c3c(=O)cc(-c4ccc(C(F)(F)F)cc4Cl)oc23)[C@@H]1CO	item: Pneumonia	relapsed B-cell malignancies or AML	oral, 50 mg, grade 3-4, continuous dosing		patients with adverse event	0%
CO[C@H]1C[C@@H]2CC[C@@H](C)[C@@](O)(O2)C(=O)C(=O)N2CCCC[C@H]2C(=O)O[C@H]([C@H](C)C[C@@H]2CC[C@@H](OC(=O)NCCOCCOCCOCCOCCOCCOCCOCCOCCC(=O)N3CCc4cc(Cn5nc(-c6ccc7oc(N)nc7c6)c6c(N)ncnc65)ccc4C3)[C@H](OC)C2)C[C@@H](O)[C@H](C)/C=C(\C)[C@@H](O)[C@@H](OC)C(=O)[C@H](C)C[C@H](C)/C=C/C=C/C=C/1C		patients with advanced solid tumours	intravenous, 1.6 mg/3 mg weekly, any grade		incidence of any SAE	20%
Cc1ccc(F)c2cc(C(=O)N[C@@H]3CCC[C@H](N4CC[C@H](N(C)S(C)(=O)=O)C4)C3)[nH]c12		CD1 mouse, plasma	intravenous, 1 mg/kg, 2 h		plasma concentration	36.2 ng/mL
CC(=O)c1c([O-])cc(C)oc1=O.[Na+]		Wistar rat, female, serum	oral, 200 mg/kg, no CYP inhibitor		clearance	0.05 ± 0.003 L/h/kg

Excerpt of the above:
SMILES	test	system	setting	how to read	endpoint	value
CO[C@H]1C[C@@H]2CC[C@@H](C)[C@@](O)(O2)C(=O)C(=O)N2CCCC[C@H]2C(=O)O[C@H]([C@H](C)C[C@@H]2CC[C@@H](OC(=O)NCCOCCOCCOCCOCCOCCOCCOCCOCCC(=O)N3CCc4cc(Cn5nc(-c6ccc7oc(N)nc7c6)c6c(N)ncnc65)ccc4C3)[C@H](OC)C2)C[C@@H](O)[C@H](C)/C=C(\C)[C@@H](O)[C@@H](OC)C(=O)[C@H](C)C[C@H](C)/C=C/C=C/C=C/1C		patients with advanced solid tumours	intravenous, 1.6 mg/3 mg weekly, any grade		incidence of any SAE	20%
Cc1ccc(F)c2cc(C(=O)N[C@@H]3CCC[C@H](N4CC[C@H](N(C)S(C)(=O)=O)C4)C3)[nH]c12		CD1 mouse, plasma	intravenous, 1 mg/kg, 2 h		plasma concentration	36.2 ng/mL
